Results of several laboratories.
Every numbered part comes from another study and shows a few of its results, in no order. Changes are numbered by the printed parent chain.

Study 1
Target: UDP-N-acetylglucosamine--peptide N-acetylglucosaminyltransferase 110 kDa subunit (OGT, Homo sapiens, UniProt O15294)
Chain of UniProt O15294 (whole entry, looked up): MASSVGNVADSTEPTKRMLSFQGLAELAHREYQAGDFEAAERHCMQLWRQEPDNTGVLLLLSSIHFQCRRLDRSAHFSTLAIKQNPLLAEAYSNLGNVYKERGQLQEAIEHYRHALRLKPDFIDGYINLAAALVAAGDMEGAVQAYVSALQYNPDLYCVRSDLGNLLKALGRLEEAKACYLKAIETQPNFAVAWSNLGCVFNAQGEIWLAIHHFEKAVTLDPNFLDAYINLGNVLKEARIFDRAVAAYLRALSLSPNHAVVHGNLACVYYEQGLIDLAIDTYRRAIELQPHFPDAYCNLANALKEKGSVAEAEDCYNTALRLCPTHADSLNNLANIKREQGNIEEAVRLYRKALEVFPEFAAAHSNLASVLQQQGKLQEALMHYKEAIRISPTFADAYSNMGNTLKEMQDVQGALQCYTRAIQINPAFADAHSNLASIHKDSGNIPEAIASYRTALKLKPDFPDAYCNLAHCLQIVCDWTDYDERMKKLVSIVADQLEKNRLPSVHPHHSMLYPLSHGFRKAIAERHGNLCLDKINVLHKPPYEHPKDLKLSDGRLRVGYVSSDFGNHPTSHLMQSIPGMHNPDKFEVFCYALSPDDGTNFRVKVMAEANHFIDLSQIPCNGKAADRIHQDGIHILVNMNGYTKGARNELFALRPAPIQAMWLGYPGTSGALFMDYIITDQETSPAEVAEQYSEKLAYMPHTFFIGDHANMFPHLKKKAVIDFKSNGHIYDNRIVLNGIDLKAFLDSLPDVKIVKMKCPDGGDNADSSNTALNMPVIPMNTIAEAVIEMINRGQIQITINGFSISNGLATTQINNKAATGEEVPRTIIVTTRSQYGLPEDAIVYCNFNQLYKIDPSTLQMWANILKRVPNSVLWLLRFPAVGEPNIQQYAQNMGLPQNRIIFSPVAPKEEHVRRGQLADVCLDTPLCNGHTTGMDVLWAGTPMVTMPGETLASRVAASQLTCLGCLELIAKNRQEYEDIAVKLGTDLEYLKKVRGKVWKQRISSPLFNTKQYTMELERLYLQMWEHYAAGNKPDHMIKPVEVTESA
Observed: binding
Technique: phage display NGS
Molecule type: peptide
Concentration: concentration not given
Baseline: input library
Sequence	enrichment fold change
IQYPQVYPPKYQIMV	56
QNDRYLPAYVITYAR	2.49
SYMPVYQIDYTPAV	44
TYSDTNHHAHQWLLK	3.47
HRASMHHVFSPHLDH	6.37
SIHTWSVGKHFRHHW	6.85
QHAHTHKHHHALTDI	5.03
YPPYAFHQATHHHHK	9.53

Study 2
Target: inorganic phosphate, free oxyanion
Technique: microfluidic competitive inhibition
Sample: in vitro, cell-free expressed
Concentration: not given
Notes: derived from inhibition constants, unchanged parent 615000 nM
Reading: lower = stronger binding
Parent: PafA, mature enzyme, eGFP fusion (Elizabethkingia meningoseptica, UniProt Q9KJX5); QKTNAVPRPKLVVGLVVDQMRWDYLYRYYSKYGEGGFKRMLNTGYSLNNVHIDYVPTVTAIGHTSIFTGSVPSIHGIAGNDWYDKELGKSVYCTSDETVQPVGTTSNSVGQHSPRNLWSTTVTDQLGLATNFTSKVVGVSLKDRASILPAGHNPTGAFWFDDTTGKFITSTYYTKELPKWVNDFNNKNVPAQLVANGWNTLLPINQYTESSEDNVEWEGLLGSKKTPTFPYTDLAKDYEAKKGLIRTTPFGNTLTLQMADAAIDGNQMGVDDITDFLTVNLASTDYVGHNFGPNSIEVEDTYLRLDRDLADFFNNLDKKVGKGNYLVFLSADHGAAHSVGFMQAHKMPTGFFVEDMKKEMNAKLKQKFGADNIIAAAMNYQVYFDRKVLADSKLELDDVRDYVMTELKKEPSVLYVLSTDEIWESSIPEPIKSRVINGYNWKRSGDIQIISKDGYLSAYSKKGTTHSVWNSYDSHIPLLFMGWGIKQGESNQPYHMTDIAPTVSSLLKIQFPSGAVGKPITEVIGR
Substitution	phosphate dissociation constant
I204G	542 µM
K367G	553 µM
I52G	499 µM
P501V	604 µM
Q381V	702 µM
L87V	656 µM
K322V	655 µM
P203V	598 µM

Other studies, line by line
Concentration: 10 µM
CAMK2A: Calcium/calmodulin-dependent protein kinase type II subunit alpha (CAMK2A, Homo sapiens, UniProt Q9UQM7)
Chain of UniProt Q9UQM7 (whole entry, looked up): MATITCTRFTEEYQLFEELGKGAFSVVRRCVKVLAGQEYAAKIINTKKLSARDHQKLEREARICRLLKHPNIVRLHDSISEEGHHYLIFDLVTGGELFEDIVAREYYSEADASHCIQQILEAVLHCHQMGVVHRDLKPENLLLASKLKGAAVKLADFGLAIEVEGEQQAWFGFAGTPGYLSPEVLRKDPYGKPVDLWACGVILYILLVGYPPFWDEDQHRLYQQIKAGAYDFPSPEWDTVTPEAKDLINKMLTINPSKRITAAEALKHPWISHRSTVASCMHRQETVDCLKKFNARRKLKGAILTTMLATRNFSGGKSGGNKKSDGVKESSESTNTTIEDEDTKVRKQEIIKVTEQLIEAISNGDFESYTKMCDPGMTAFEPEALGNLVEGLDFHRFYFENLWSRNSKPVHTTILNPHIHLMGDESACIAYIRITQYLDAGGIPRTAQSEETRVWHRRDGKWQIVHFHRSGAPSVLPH
SMILES	tested on	test	conditions	how to read	quantity	result
CC(C)=CC1C(C(=O)OCc2cccc(Oc3ccccc3)c2)C1(C)C (centres unmarked)	CAMK2A	enzyme activity, inhibitor	–	–	inhibition	-15%
Cc1cc2c(C(C)C)c(O)c(O)c(C=O)c2c(O)c1-c1c(C)cc2c(C(C)C)c(O)c(O)c(C=O)c2c1O	mouse MPNST tumor cells	high-content immunofluorescence imaging, item: nuclear SOX9	12 h, mean of 2 replicates	baseline: DMSO control, higher = more nuclear SOX9	nuclear SOX9 intensity	102 % of DMSO
CC1=C2[C@H]3OC(=O)[C@@H](C)[C@@H]3CC[C@@]2(C)C=CC1=O	CAMK2A	enzyme activity, inhibitor	–	–	inhibition	-11%
NCC(CC(=O)O)c1ccc(Cl)cc1 (centres unmarked)	Huh-7	–	24 h	–	viability	100%

For quick reference, copied from above (study 2):
Substitution	phosphate dissociation constant
P501V	604 µM
Q381V	702 µM
L87V	656 µM
